Measurements of several laboratories.
Each numbered part is a random draw from the data of one study; scales do not carry over between parts. “And” joins repeats or separate records; there may be more than shown.
UniProt P46098, sequence (whole entry, looked up): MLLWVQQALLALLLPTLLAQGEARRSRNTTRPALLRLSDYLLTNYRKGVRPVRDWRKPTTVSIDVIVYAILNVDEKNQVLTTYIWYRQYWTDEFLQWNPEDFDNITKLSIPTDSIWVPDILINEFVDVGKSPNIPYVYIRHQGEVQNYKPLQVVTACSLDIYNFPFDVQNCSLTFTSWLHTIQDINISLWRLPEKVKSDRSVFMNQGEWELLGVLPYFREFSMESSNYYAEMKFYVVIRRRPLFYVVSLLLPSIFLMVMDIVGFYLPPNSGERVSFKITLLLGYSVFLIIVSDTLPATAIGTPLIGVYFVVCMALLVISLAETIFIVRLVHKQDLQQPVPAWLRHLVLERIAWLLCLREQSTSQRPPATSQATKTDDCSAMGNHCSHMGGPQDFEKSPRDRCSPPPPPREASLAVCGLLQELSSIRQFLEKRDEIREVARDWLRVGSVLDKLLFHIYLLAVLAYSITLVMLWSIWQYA
UniProt P41595, sequence (whole entry, looked up): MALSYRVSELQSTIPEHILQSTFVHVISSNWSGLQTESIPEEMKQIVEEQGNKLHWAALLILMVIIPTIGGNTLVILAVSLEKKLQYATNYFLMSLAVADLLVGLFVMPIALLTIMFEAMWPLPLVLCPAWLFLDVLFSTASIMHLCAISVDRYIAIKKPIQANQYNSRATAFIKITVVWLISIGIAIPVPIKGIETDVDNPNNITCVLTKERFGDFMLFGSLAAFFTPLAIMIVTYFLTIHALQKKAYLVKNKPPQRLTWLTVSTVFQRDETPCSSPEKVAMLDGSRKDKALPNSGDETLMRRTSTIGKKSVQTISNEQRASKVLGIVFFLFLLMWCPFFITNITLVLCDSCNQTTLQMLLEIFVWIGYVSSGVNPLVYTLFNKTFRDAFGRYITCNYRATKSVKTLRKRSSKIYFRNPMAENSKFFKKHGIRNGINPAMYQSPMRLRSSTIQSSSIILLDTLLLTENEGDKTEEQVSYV

Sample 1
Target: Casein kinase I isoform epsilon (CSNK1E, Homo sapiens, UniProt P49674)
UniProt P49674, sequence (whole entry, looked up): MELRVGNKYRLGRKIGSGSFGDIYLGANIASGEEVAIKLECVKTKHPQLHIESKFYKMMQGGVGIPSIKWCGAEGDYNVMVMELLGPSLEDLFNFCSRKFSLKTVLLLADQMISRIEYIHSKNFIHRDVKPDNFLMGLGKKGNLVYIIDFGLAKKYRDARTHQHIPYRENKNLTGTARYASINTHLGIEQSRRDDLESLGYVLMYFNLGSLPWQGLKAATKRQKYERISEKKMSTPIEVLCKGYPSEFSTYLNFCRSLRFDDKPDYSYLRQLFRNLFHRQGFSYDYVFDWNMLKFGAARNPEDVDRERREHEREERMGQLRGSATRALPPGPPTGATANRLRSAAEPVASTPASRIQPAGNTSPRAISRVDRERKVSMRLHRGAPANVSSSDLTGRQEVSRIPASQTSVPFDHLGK
Effect on: enzyme activity
Mode: inhibitor
Tested at: 0.5 µM
Relative to: control
| SMILES | remaining activity |
| --- | --- |
| O=C(O)c1ccc2c3c1cccc3c(=O)n1c3ccccc3nc21 | 96% |
| O=C(Nc1cccc(Nc2cc(Nc3cccc(C(F)(F)F)c3)ncn2)c1)C1CC1 | 98.1% |
| CC(C)[C@H](CO)Nc1nc(Nc2cc(N)cc(Cl)c2)c2ncn(C(C)C)c2n1 | 82.7% |
| O=S(=O)(c1cccc2cnccc12)N1CCCNCC1 | 99.3% |
| Cc1ccc(Nc2nccc(N(C)c3ccc4c(C)n(C)nc4c3)n2)cc1S(N)(=O)=O | 97.5% |
| Cn1sc(=O)n(Cc2ccccc2)c1=O | 100% |
| O=C1NC(=O)C(c2cn(CCCn3ccnc3)c3ccccc23)=C1Nc1ccccc1 | 96.7% |
| COc1ccc(OC)c2c(=S)c3ccccc3[nH]c12 | 90.3% |
| OCC(O)CCON=C1C(c2c(O)[nH]c3ccccc23)=Nc2ccccc21 (stereo not drawn) | 43.2% |
| Nc1ccc2ncnc(NCCc3ccc(Oc4ccccc4)cc3)c2c1 | 148% |
| COc1ccc(CNC(=O)Nc2ncc([N+](=O)[O-])s2)cc1 | 102% |
| Cc1cccc(-c2[nH]c(C(C)(C)C)nc2-c2ccc3c(c2)OCO3)n1 | 71.5% |
| CCOC(=O)c1c(C)[nH]c(/C=C2\C(=O)Nc3ccccc32)c1C | 73.7% |
| Nc1ncnc2n[nH]c(Nc3ccc(F)cc3)c12 | 80.5% |

Sample 2
Cell line: mouse MPNST tumor cells
Method: high-content nuclear imaging
Measured: cell number
Tested at: 10 µM
Time: 12 h
Setting: mean of 2 replicates
Relative to: plate mean
Direction: higher = more cells
| SMILES | nuclei count |
| --- | --- |
| O=C(Nc1ccc(S(=O)(=O)Nc2ccccc2Cl)c(Cl)c1)c1ccccn1 | -0.534 z-score |
| CC(C)(C)c1ccc(NC(=O)N2CCN(c3ncccc3Cl)CC2)cc1 | 0.545 z-score |
| CC(C)c1cnn2c(NCc3ccccc3)cc(NCCCCCCN)nc12 | -0.625 z-score |
| CN(C)CCOc1cc(-c2cn[nH]c2)ccc1NC(=O)C1COc2ccccc2O1 (stereo not drawn) | 0.993 z-score |
| Nc1ccc(-c2cnc(N)c(-c3ccc(Cl)cc3)c2)cn1 | 4.55 z-score |
| COc1cccc2c1C(=O)c1c(O)c3c(c(O)c1C2=O)C[C@@](O)(C(=O)CO)C[C@@H]3O[C@H]1C[C@H](N)[C@@H](O)[C@H](C)O1 | -4.41 z-score |
| CCCCOc1cc(C(=O)NCCN(CC)CC)c2ccccc2n1 | -3.59 z-score |
| CC[C@H]1OC(=O)[C@H](C)[C@@H](O[C@H]2C[C@@](C)(OC)[C@@H](O)[C@H](C)O2)[C@H](C)[C@@H](O[C@@H]2O[C@H](C)C[C@H](N(C)C)[C@H]2O)[C@](C)(OC)C[C@@H](C)C(=O)[C@H](C)[C@@H](O)[C@]1(C)O | 2.33 z-score |
| CCn1c(=O)c(-c2ccc(-c3cncs3)cc2Cl)cc2cnc(Nc3ccc(N4CCN(C)CC4)cc3)nc21 | 1.79 z-score |
| COc1ccc(CCCn2ncc3c2nc(N)n2nc(-c4ccco4)nc32)cc1 | 0.351 z-score |
| CN(C)CCc1c[nH]c2ccc(Cn3cncn3)cc12 | 1.1 z-score and 0.756 z-score |

Sample 3
Target: Receptor-interacting serine/threonine-protein kinase 3 (RIPK3, Homo sapiens, UniProt Q9Y572)
UniProt Q9Y572, sequence (whole entry, looked up): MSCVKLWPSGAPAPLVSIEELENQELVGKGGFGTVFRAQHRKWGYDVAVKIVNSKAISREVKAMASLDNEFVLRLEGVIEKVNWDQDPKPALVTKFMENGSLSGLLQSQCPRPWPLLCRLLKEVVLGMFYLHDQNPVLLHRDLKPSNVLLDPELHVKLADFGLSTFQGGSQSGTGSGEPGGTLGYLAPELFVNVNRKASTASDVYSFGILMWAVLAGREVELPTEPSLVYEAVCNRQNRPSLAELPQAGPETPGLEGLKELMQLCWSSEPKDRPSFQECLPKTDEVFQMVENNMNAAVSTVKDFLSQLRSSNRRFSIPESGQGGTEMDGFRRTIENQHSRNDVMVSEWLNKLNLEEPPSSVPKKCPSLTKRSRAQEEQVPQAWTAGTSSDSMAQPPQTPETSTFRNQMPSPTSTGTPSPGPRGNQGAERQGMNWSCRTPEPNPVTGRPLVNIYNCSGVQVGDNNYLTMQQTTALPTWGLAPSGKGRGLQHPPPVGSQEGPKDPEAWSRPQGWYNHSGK
Effect on: enzyme activity
Mode: inhibitor
Method: ADP detection
| SMILES | IC50 [nM] |
| --- | --- |
| Cc1ccc(O)cc1Nc1ccnc2cc(-c3ccccn3)ccc12 | 1.58 |
| CC(C)S(=O)(=O)c1ccc2nccc(Nc3ccc4sc(C5CCCC5)nc4c3)c2c1 | 1.58 |
| CC(C)(C)c1nc(-c2cccc(NS(=O)(=O)c3c(F)cccc3F)c2F)c(-c2ccnc(N)n2)s1 | 28.2 |
| CC(C)S(=O)(=O)c1cc2c(Nc3ccc4sc(C5CCCC5)nc4c3)ccnc2cc1OCCO | 16.4 |
| CC[C@@H](C)c1nc2cc(Nc3ccnc4ccc(S(=O)(=O)C(C)C)cc34)ccc2s1 | 3.48 |

Sample 4
Target: DNA polymerase theta, ATPase domain (POLQ, Homo sapiens, UniProt O75417)
UniProt O75417, sequence (whole entry, unmodified, looked up): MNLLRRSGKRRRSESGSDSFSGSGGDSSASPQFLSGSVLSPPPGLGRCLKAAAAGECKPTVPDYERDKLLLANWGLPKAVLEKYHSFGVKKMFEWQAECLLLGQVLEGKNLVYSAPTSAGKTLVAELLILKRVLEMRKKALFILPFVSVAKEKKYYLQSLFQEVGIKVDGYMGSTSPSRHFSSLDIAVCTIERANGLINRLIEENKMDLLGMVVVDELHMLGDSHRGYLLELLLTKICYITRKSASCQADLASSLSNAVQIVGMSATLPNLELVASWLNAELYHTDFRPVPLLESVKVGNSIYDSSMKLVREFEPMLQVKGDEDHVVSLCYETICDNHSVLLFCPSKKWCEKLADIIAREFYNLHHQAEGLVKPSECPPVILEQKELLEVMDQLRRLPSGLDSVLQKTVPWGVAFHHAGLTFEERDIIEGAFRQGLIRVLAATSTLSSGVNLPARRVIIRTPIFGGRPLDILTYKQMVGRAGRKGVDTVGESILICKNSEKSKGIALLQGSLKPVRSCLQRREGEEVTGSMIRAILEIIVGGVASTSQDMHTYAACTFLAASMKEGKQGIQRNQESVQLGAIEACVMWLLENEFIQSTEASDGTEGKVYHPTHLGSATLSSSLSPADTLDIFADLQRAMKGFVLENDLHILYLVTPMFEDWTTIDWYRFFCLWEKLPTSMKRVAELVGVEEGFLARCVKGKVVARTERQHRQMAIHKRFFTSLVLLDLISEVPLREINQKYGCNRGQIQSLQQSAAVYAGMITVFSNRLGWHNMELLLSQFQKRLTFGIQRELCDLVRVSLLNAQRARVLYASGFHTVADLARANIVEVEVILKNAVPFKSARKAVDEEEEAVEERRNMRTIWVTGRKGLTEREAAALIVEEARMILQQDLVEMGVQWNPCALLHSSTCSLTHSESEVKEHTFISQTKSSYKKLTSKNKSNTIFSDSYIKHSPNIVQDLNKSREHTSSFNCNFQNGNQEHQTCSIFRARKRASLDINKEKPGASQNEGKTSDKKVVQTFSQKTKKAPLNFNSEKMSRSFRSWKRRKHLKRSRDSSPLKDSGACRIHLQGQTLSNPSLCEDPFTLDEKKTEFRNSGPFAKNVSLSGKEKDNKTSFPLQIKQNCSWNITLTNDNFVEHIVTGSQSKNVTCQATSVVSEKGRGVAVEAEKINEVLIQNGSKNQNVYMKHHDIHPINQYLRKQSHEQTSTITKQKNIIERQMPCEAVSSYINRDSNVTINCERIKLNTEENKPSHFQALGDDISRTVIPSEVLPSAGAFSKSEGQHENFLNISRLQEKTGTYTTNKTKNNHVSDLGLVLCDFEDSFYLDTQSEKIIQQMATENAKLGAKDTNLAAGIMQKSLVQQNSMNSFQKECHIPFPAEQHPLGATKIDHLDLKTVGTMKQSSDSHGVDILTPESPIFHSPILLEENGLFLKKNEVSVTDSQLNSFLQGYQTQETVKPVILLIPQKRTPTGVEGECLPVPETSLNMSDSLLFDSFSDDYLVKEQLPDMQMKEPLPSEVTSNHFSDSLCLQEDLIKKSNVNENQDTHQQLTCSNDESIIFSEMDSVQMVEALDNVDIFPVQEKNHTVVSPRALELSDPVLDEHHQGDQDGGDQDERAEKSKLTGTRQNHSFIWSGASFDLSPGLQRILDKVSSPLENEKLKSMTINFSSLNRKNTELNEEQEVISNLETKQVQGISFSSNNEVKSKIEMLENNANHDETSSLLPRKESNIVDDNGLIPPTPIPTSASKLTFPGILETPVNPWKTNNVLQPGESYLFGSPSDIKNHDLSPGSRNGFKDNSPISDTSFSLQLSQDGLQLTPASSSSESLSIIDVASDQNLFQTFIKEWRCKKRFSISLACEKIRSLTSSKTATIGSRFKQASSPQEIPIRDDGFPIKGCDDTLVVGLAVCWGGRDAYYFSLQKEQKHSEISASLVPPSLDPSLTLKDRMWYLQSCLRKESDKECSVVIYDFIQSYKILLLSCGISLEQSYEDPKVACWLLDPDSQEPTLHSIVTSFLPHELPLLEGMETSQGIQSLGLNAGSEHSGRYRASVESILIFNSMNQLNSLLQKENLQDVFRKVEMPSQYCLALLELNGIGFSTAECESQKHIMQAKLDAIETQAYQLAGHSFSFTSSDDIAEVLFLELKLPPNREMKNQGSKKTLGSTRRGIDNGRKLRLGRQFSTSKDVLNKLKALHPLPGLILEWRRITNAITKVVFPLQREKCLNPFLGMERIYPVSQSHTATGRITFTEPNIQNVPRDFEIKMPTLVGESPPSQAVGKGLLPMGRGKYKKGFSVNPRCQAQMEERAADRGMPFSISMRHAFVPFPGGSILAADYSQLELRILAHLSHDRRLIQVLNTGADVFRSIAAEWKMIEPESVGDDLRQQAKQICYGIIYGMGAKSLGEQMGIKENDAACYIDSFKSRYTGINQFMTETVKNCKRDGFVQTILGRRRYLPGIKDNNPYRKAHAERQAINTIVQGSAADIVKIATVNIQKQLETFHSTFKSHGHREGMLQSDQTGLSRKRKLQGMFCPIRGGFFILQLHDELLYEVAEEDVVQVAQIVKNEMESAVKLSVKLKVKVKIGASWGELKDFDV
Effect on: enzyme activity
Mode: inhibitor
Tested at: 77 µM
Relative to: untreated
| SMILES | remaining activity [%] |
| --- | --- |
| CN1CCN(CCOc2cc(OC3CCOCC3)c3c(Nc4c(Cl)ccc5c4OCO5)ncnc3c2)CC1 | 97.1 |
| Cc1cc(N2CCOCC2)cc2[nH]c(-c3c(NC[C@@H](O)c4cccc(Cl)c4)cc[nH]c3=O)nc12 | 98.3 |
| COC(=O)[C@H]1[C@H]2C[C@H]3c4[nH]c5ccccc5c4CCN3C[C@@H]2CC[C@@H]1O | 109 |
| O=C(O)c1cc(=O)c2c(OCC(O)COc3cccc4oc(C(=O)O)cc(=O)c34)cccc2o1 | 105 |

Other studies, line by line
Tested at: 10 µM
| SMILES | target | effect on | method | inhibition [%] |
| --- | --- | --- | --- | --- |
| CNC(=O)c1ccc(Nc2ncc(C(F)(F)F)c(NCc3nccnc3N(C)S(C)(=O)=O)n2)cc1 | HTR3A (Homo sapiens, UniProt P46098) | binding | radioligand binding | 6.5 |
| O=C(NC[C@@H]1[C@H]2CN(C(=O)OCc3cc(C(F)(F)F)cc(C(F)(F)F)c3)C[C@@H]12)c1ccc2[nH]nnc2c1 | HTR2B (Homo sapiens, UniProt P41595) | cell-free assay | – | 45.9 |
